# Measured values of several laboratories.
# A part holds a random share of what one study measured. Several values in a cell are separate wells, animals, samples, runs or records.
# UniProt P27361, sequence (whole entry, looked up): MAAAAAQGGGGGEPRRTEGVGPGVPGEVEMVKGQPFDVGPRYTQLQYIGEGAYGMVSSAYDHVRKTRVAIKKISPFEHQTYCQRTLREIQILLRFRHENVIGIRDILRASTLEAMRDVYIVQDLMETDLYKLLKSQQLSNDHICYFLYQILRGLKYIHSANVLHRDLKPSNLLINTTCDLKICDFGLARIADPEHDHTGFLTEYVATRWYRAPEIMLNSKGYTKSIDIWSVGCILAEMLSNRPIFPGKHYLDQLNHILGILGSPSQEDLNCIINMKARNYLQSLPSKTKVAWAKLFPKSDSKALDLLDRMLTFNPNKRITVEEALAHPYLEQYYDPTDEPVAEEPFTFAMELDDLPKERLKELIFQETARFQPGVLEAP
# UniProt P49841, sequence (whole entry, looked up): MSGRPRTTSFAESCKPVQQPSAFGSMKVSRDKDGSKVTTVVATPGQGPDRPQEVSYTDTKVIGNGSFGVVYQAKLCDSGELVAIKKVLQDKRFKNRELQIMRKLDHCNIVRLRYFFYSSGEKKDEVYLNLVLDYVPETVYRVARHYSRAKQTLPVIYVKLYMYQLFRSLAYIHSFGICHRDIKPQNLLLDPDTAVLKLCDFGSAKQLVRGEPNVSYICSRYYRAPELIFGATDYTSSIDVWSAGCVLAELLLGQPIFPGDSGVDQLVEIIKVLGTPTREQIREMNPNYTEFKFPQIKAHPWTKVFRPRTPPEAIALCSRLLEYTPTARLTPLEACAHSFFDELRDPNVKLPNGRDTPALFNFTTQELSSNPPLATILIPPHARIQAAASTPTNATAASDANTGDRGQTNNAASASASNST
# UniProt Q8IU85, sequence (whole entry, looked up): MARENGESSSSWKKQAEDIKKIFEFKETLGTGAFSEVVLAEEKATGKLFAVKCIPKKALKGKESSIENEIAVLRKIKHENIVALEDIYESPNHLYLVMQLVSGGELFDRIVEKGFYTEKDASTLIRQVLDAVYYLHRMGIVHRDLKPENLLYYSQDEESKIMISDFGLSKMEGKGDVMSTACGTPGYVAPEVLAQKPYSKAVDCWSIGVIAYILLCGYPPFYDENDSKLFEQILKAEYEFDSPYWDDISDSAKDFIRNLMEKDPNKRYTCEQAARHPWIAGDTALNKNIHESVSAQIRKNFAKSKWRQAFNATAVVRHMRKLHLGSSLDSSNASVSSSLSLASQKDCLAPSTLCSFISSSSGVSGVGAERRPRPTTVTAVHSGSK
# UniProt P28482, sequence (whole entry, looked up): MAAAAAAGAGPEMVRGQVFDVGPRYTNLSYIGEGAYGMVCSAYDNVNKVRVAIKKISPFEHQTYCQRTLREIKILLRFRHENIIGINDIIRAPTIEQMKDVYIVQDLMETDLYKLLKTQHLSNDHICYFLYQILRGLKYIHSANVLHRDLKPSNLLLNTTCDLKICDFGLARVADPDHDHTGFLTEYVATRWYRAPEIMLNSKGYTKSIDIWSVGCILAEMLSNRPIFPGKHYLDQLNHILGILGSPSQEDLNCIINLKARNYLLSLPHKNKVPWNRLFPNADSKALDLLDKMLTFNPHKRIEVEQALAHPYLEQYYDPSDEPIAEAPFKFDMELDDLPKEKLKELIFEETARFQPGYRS

# Set 1 — read-out: ATPase activity; tested at: concentration not given; notes: average; added: with ssDNA
# Target: DNA polymerase theta, helicase domain (POLQ, Homo sapiens, UniProt O75417)
# UniProt O75417, sequence (whole entry, looked up): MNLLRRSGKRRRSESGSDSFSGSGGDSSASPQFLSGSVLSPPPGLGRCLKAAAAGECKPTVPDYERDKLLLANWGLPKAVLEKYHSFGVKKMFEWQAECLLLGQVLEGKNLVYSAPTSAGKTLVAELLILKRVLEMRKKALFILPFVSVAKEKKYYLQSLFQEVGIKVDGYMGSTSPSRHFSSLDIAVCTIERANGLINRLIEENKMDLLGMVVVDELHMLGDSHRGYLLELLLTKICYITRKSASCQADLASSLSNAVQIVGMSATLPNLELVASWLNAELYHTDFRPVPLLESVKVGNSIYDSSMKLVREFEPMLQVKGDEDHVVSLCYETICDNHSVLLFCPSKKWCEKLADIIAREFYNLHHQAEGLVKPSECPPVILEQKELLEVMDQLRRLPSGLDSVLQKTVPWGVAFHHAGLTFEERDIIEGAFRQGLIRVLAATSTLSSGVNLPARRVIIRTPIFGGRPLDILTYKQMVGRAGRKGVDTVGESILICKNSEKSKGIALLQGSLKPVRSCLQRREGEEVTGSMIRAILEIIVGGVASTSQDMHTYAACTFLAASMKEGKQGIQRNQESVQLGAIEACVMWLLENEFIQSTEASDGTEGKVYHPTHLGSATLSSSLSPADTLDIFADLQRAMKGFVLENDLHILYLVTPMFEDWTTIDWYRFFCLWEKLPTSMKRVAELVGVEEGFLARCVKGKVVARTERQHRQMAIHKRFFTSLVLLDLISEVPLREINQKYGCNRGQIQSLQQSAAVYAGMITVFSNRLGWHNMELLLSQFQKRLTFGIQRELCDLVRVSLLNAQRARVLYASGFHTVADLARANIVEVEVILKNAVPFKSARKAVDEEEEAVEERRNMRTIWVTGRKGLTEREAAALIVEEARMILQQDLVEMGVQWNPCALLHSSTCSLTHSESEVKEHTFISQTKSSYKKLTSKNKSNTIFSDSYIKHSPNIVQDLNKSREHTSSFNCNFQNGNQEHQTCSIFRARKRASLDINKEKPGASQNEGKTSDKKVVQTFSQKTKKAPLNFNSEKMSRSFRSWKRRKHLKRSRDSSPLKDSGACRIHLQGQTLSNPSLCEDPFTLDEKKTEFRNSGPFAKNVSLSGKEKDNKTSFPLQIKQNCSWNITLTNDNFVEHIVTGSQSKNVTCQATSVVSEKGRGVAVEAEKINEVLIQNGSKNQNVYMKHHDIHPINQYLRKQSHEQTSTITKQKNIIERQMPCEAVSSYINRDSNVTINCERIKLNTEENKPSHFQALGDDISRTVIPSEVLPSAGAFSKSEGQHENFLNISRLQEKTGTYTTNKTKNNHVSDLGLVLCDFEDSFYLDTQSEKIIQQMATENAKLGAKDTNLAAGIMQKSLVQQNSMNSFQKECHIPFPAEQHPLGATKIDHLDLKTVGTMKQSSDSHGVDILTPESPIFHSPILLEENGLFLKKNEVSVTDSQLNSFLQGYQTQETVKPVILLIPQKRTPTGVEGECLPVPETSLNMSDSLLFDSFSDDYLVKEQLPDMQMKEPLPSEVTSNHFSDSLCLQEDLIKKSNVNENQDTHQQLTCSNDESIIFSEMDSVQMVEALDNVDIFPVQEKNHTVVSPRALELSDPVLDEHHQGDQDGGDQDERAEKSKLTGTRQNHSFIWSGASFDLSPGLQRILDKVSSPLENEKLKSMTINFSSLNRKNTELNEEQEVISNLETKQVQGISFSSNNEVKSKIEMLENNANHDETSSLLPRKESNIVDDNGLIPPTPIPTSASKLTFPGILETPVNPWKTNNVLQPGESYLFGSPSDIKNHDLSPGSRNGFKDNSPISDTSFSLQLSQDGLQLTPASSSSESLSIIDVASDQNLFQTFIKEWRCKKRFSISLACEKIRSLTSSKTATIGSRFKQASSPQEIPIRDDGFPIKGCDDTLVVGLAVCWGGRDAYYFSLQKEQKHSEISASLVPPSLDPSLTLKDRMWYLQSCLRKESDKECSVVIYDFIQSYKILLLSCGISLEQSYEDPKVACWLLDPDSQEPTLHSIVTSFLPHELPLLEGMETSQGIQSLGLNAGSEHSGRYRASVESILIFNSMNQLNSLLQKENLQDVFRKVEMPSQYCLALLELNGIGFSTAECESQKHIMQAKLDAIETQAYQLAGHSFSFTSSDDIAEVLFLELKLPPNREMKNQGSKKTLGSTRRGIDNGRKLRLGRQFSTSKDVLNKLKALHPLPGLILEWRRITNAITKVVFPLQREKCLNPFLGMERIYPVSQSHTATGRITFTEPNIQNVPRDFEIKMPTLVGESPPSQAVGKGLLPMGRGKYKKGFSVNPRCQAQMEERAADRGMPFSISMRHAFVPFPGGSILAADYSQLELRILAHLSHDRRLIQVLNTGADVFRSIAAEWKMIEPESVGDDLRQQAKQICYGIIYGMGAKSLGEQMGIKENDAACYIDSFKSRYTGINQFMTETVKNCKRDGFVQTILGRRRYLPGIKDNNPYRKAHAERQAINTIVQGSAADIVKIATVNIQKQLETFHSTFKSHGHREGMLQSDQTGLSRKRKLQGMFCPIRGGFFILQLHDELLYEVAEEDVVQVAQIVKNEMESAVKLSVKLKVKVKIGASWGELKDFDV
Structure (SMILES),remaining activity
CC[N+](C)(CC)CCC[n+]1c(-c2ccccc2)c2cc(N)ccc2c2ccc(N)cc21,41.5%
O=C(Nc1noc2ccccc12)c1ccc(F)cc1,48.6%
CC(=O)Oc1cccc2c1C(=O)c1c(OC(C)=O)cc(C(=O)O)cc1C2=O,57.4%
O=C(O)c1cccnc1Nc1cccc(C(F)(F)F)c1,62.6%
CCOc1nc2cccc(C(=O)OCc3oc(=O)oc3C)c2n1Cc1ccc(-c2ccccc2-c2noc(=O)[nH]2)cc1,42.2%
Cc1ccc(C(=O)Nc2ccccc2C(=O)O)cc1S(=O)(=O)N1CCCCCC1,68.8%
O=c1[nH]c2cc(Cl)ccc2c(O)c1-c1cccc(Oc2ccccc2)c1,73.2%
COC(=O)[C@]12CCC(C)(C)C[C@H]1[C@H]1C(=O)C=C3[C@@]4(C)C=C(C#N)C(=O)C(C)(C)[C@@H]4CC[C@@]3(C)[C@]1(C)CC2,41.9%
CCOc1ccc2nc3cc(N)ccc3c(N)c2c1,33.2%
CCOc1cccc2c1N[C@@H](c1ccc(C(=O)O)cc1)[C@H]1CC=C[C@@H]21,48.9%
COc1cccc2c1C(=O)c1c(O)c3c(c(O)c1C2=O)C[C@@](O)(C(=O)CO)C[C@@H]3O[C@H]1C[C@H](N)[C@H](O)[C@H](C)O1,48.1%
Cc1c(Cl)cccc1NC(=O)CSc1ncc(S(=O)(=O)c2ccc(C(C)C)cc2)c(=O)[nH]1,69.3%
COc1cccc2c1C(=O)c1c(O)c3c(c(O)c1C2=O)C[C@@](O)(C(C)=O)C[C@@H]3O[C@H]1C[C@H](N)[C@H](O)[C@H](C)O1,52.8%

# Set 2 — read-out: enzyme activity; action: inhibitor; tested at: 0.5 µM; relative to: control
# SMILES: CN(C)CCCn1cc(C2=C(c3c[nH]c4ccccc34)C(=O)NC2=O)c2ccccc21
target,remaining activity
"DMPK (Homo sapiens, UniProt Q09013)",94.7%
"HIPK3 (Homo sapiens, UniProt Q9H422)",102%
"MAPK10 (Homo sapiens, UniProt P53779)",99.3%
"CAMK1D (Homo sapiens, UniProt Q8IU85)",68%
"PTK2B (Homo sapiens, UniProt Q14289)",98.5%
"Cyclin-dependent kinase 2, with cyclin A (CDK2, Homo sapiens, UniProt P24941)",85.2%
"MAP3K2 (Homo sapiens, UniProt Q9Y2U5)",82.8%
"NEK9 (Homo sapiens, UniProt Q8TD19)",100%
"NTRK3 (Homo sapiens, UniProt Q16288)",20.2%
"CAMK1G (Homo sapiens, UniProt Q96NX5)",97.4%
"SLK (Homo sapiens, UniProt Q9H2G2)",45.8%
"PKN2 (Homo sapiens, UniProt Q16513)",72.1%

# Set 3
# SMILES: C[C@H](NC(=O)Nc1cc2[nH]ncc2c(CO)n1)c1ccccn1
# GSK3A: Glycogen synthase kinase-3 alpha (GSK3A, Homo sapiens, UniProt P49840)
# UniProt P49840, sequence (whole entry, looked up): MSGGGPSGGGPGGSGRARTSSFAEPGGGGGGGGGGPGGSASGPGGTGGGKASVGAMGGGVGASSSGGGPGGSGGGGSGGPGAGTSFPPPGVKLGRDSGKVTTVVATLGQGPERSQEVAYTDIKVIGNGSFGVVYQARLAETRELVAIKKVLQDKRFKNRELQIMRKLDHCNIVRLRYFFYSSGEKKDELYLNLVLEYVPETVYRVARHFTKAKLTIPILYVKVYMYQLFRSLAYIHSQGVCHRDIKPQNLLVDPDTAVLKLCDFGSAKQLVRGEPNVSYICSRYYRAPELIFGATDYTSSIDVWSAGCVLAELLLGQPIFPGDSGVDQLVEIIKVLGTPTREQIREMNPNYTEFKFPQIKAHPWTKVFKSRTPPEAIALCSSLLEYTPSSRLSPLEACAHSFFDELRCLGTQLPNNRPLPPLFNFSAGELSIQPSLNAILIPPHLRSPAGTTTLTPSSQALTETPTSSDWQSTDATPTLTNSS
# SGK1: Serine/threonine-protein kinase Sgk1 (SGK1, Homo sapiens, UniProt O00141)
# UniProt O00141, sequence (whole entry, looked up): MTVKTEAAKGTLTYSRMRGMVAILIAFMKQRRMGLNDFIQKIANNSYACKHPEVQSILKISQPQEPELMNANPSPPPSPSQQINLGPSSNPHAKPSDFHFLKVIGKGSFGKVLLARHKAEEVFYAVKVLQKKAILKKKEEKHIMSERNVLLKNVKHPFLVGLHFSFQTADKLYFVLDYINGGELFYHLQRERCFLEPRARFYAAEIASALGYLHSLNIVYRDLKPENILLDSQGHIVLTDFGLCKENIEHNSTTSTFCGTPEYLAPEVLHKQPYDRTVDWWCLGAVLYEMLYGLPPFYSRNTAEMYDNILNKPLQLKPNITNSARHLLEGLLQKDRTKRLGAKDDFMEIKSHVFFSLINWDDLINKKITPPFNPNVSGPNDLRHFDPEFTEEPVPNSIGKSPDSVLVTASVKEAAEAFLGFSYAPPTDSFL
target,test,test system,EC50
GSK3A,"target engagement, NanoBRET",live cells,> 50 µM
"MAPK1 (Homo sapiens, UniProt P28482)","target engagement in cells, BRET",,18 µM
GSK3A,"target engagement in cells, BRET",,> 50 µM
SGK1,"target engagement, NanoBRET",live cells,> 50 µM
"GSK3B (Homo sapiens, UniProt P49841)","target engagement, NanoBRET",live cells,> 50 µM
SGK1,"target engagement in cells, BRET",,> 50 µM
"MAPK3 (Homo sapiens, UniProt P27361)","target engagement, NanoBRET",live cells,4.15 µM and 8.24 µM and 7.62 µM

# Other studies, line by line — cell line: Caco-2; tested at: 10 µM; time: 120 min; notes: apical to basolateral
Compound,recovery [%]
CC(C)NCC(O)COc1cccc2ccccc12 (stereo not shown),95.1
C[C@H]1O[C@@H](O[C@H]2[C@@H](O)C[C@H](O[C@H]3[C@@H](O)C[C@H](O[C@H]4CC[C@@]5(C)[C@H](CC[C@@H]6[C@@H]5C[C@@H](O)[C@]5(C)[C@@H](C7=CC(=O)OC7)CC[C@]65O)C4)O[C@@H]3C)O[C@@H]2C)C[C@H](O)[C@@H]1O,92.3

# Repeated from above (set 3):
target,test,test system,EC50
GSK3A,"target engagement in cells, BRET",,> 50 µM
SGK1,"target engagement, NanoBRET",live cells,> 50 µM
"GSK3B (Homo sapiens, UniProt P49841)","target engagement, NanoBRET",live cells,> 50 µM
SGK1,"target engagement in cells, BRET",,> 50 µM
"MAPK3 (Homo sapiens, UniProt P27361)","target engagement, NanoBRET",live cells,4.15 µM and 8.24 µM and 7.62 µM
